Experimental data from different studies.
Numbered parts are unrelated; each lists some results of a single study. Positions count from the first letter of the parent shown.

Sample 1
Target: Centromere-binding protein 1, full length, His-tagged (CBF1, Saccharomyces cerevisiae, UniProt P17106, residues 1-351)
Sequence of UniProt P17106 (whole entry, looked up): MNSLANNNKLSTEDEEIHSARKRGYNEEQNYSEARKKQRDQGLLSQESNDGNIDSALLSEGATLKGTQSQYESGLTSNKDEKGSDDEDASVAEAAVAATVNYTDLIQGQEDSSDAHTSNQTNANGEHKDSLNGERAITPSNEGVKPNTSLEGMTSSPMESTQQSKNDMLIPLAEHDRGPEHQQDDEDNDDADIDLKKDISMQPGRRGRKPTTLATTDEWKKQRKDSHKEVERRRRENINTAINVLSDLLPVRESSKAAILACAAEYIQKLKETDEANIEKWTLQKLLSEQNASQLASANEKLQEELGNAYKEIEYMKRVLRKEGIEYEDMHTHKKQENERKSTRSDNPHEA
Technique: competition protein-binding microarray
Molecule type: double-stranded DNA, one strand shown
Sample: in vitro
Tested at: 2 µM
Notes: whole 60-bp probe, lowest competitor level
Added: Pho4 competitor, 0.05 µM
Direction: higher = stronger binding
Shared flanks, not repeated: … GTCTTGATTCGCTTGACGCTGCTG
| Sequence | fluorescence intensity [a.u.] |
| --- | --- |
| CGGGGTTAAGTTTGTACTGTGGGTGGCTTGCAGCAG | 82.5 |
| CGGGGTTAAGTTTGTTTAGTGGGTGGCTTGCAGCAG | 60.1 |
| ACACTTTTGGCTCAACTCGTGTGGACAAAGCGATCT | 69.9 |
| TGTACACATTACTGGCACGCTCTAATAGTTCGTTTA | 89.8 |
| CGTCCTAGTGATTGCCATGTGGGTGCCATGAGGAAG | 116 |
| AAAGCGGTAATTTGTCACTGCACTTCACATATCTAT | 74 |
| TGCGCAACAACTTTTCACGTGTCCTTATGTCTAGAA | 1350 |
| CTTCTGTAAATTTTTCACGTGCCATGACGCGCCCCG | 1180 |
| TGCGCAACAACTTGCCCCGTGGGTGTATGTCTAGAA | 70.8 |

Sample 2
Target: CCNA1, cyclin fold, Cln2 fusion (human)
Technique: yeast growth competition, sequencing
Sample: yeast
Notes: weak parent motif
Baseline: not given
Direction: higher = stronger binding
Starting sequence: GMNC docking peptide (human); KNAKRNLSSEFAN
| Substitution | normalised enrichment score |
| --- | --- |
| N6D | -0.189 |
| S8T | 0.132 |
| A3Q | -0.111 |
| N6Q | 0.0996 |
| K4C | 0.261 |
| L7N | 0.229 |
| N6C | 0.336 |
| L7H | 0.0395 |
| S9V | 0.626 |
| S9L | 0.871 |
| N2T | 0.907 |
| S9H | 0.477 |
| K4M | 0.0927 |
| E10D | -0.128 |
| K4Y | 0.318 |
| N6F | -0.29 |

Sample 3
Target: Prothrombin, mature alpha-thrombin (F2, Homo sapiens, UniProt P00734)
Technique: aptamer microarray, sandwich
Molecule type: DNA with 2'F-ANA
Sample: in vitro
Tested at: 200 nM
Notes: whole 15-mer aptamer, many near background
Added: Cy3 exosite-II aptamer, 400 nM
Direction: higher = stronger binding
Sequence: GGTTGGTGTGGTTGG
| Modification | mean fluorescence intensity [a.u.] |
| --- | --- |
| 2'F-ANA at 1 2 7 9 11 12 13 14 | 53.9 |
| 2'F-ANA at 1 4 5 9 10 11 14 | 43.5 |
| 2'F-ANA at 2 6 8 9 11 15 | 323 |
| 2'F-ANA at 1 3 4 5 6 9 14 15 | 45.1 |
| 2'F-ANA at 5 7 9 10 11 13 14 15 | 44.1 |
| 2'F-ANA at 1 2 3 4 5 7 8 10 11 12 15 | 52.6 |
| 2'F-ANA at 1 2 3 5 6 7 8 11 15 | 55.2 |
| 2'F-ANA at 3 4 5 12 14 | 53.9 |
| 2'F-ANA at 2 3 6 11 12 13 15 | 639 |
| 2'F-ANA at 1 3 6 8 10 11 13 | 76.9 |
| 2'F-ANA at 3 4 11 12 14 | 404 |
| 2'F-ANA at 3 4 6 7 10 11 14 15 | 196 |
| 2'F-ANA at 1 2 3 4 9 10 13 15 | 56.3 |
| 2'F-ANA at 2 4 5 6 7 8 9 14 | 48.7 |
| 2'F-ANA at 1 2 3 5 8 10 11 15 | 47.4 |
| 2'F-ANA at 2 5 6 15 | 79.9 |
| 2'F-ANA at 1 2 5 6 7 11 14 | 61.5 |

Sample 4
Target: RNA binding protein fox-1 homolog 2, RRM domain, GST-SBP tag (RBFOX2, Homo sapiens, UniProt O43251-10, residues 100-194)
Technique: RNA Bind-n-Seq
Molecule type: RNA
Sample: in vitro
Tested at: 365 nM
Notes: natural RNA segment, single round, ends assumed
Baseline: no-protein control
Direction: higher = stronger binding
Shared flanks, not repeated: GGGAGUUCUACAGUCCGACGAUC … UGGAAUUCUCGGGUGCCAA
Residues (chain): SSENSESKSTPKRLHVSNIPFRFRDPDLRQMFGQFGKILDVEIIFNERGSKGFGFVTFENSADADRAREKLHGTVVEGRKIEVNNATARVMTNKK
| Sequence | RBNS enrichment (R) |
| --- | --- |
| CCCAGGAGGUAGAAAAUGAGUGGCAGGCUAGAGAUUUCACCCAUUUUGUGGGCUGGAGUUACCAGUAGCUCCAGCAGUUACCCUGAAGAGAGAUUGGGCUUCAGCCUUCA | 0.621 |
| AAUUGGUGAUGGACAGAUGGACAGAAUGCAGAGGUACAUAGAUGAGCUGAGGCUGAUCCAGCUCCCCUGAAAUUCAGAGUGUUAACUUUGUAGACCCUGCACAAUCUCUU | 0.54 |
| UAUUCAUCUUGUUGGAACCCCACCCCAUUUUCCCUGACAGAACAUUCCUAAGUCUCAAGGGCUAGUUUCCCUGAGGAGCCCAGGCCUAACCCUCUCUCUCUCAAGCUGCC | 0.626 |
| UAAGCGAAGGGAUUAUUAGCAAGGUAAUGCCUGUGUAUGGUCAUAUAGGCACAAAUGCAGAACACCCAGCACAUUGGAGAGACGACCACUUCCUCCUUUAAAAUGUCCUA | 0.345 |
| UGUGUUCUGUUGUAAAUCAUUUGGCGAGACUGUAUUUUAGUAACUGCUGCCUAACUUCCCUGUGUUCUAUUUGAGAGGCGCCUGUCUGGAUAAAGUUGUCUUGAAAUUUC | 12.7 |
| CCCCUUCUCACCUCCUCAUUCUCUCUGGCUCUUUCUGUCUUCCUCUUCUCACCCUCCUCCCUCCCCUUAGCCAUCACUUCUGGGAAGUAAAGAACUUGACUUAGUGCCGG | 0.703 |
| UCAGAGUGUUGUUCCGUUAAUUUUGUAAAUACUGCUCGACUGUAACUCUCACAUGUGACAAAGUAUGGUUUGUUUGGUUGGGUUUUGUUUUUGAGAAUUUUUUUGCCCGU | 5.59 |
| UUAUACUGUUCAAGCAGCUCCAACGUCCAGUCUCAACACAGCGCGCCUUCGGCCAGGCAGCGAUCCACGGACCAAACCUCCUGCGCCCUCAGCCGGUGGGUCACUUCUCC | 0.451 |
| UGUGUGGGUUGCUCUGUUUUCUUACUGGAAUGCCUUCUCCGGAACUGUUGCGGUUUCAUUCUCUGUCAUCAGGGCUAUUUUCUACAGACCUUGAGCCUCAAAACCUGUUC | 0.546 |
| UUUGCGGCAAAAUAAAGGCCUAUUCUACUCUUAUUUAAAGUGAAACACUGUAUACUUGUUUCUCUCCAAAGCGAAAUUAAGUAUUUAUAAUUUCAAUUGCCUCGAUAAGU | 0.348 |
| AAAGUGCCAGAUGGAGUUUAAAUAUUGAAAUUAUUUUAAAAGGUAGGUGUCUUUAAGAAAAUAACAAGCAACCCUGUGAUAUGUUCCGUCUCUCCCAAUUCCCUCGUUAU | 0.366 |
| UGUAGAUUUUCUACUUGAAUAUUUUUAUGUUGUAGGAACCUCAGGAGGUCAGUGUUUACUGUUUUAUAUAUGCCUUCUUUUUCCUGUUUGAGCUUCUCUCUUUGAAGGAU | 0.474 |

Sample 5
Target: ABI1, truncated, D143A, DHFR fusion (Arabidopsis thaliana, UniProt P49597)
Technique: DHFR PCA, dose-response
Sample: yeast
Notes: Hill fit, mean, not affinity
Added: (+)-ABA, dose series
Direction: lower = more sensitive
Starting sequence: PYL1, truncated, DHFR fusion (Arabidopsis thaliana, UniProt Q8VZS8); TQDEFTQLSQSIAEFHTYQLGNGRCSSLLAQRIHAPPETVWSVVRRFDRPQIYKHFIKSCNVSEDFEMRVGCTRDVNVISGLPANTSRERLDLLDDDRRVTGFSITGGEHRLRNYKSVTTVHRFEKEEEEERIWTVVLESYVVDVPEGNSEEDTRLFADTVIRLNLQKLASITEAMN
| Substitution | ABA EC50 |
| --- | --- |
| E128F | 3.13 µM |
| E152A | 1.86 µM |
| G107S | 41.5 µM |
| S80H | 113 µM |
| E14P | 123 µM |
| D97W | 23.1 µM |
| R155A | 29.5 µM |
| D95S | 36.2 µM |
| N22M | 2.13 µM |
| L94T | 187 µM |
| E131Q | 4.48 µM |
| V62I | 3.44 µM |
| L138R | 918 µM |
| E151W | 11.1 µM |
| C72P | 316 µM |
| E128A | 2.21 µM |
| R32I | 3.51 µM |

Sample 6
Target: Interferon regulatory factor 3, full length, phosphomimetic (IRF3, Homo sapiens, UniProt Q14653, residues 1-427, S386D/S396D/S398D/S402D/T404D/S405D)
Technique: protein-binding microarray
Molecule type: double-stranded DNA, one strand shown
Sample: in vitro
Tested at: 2540 nM top
Notes: 60-bp whole probe
Added: salmon DNA 0.4 mg/ml
Baseline: random background probes
Direction: higher = stronger binding
Shared flanks, not repeated: GCCTAGCAC … GTCTTGATTCGCTTGACGCTGCTG
Construct (chain): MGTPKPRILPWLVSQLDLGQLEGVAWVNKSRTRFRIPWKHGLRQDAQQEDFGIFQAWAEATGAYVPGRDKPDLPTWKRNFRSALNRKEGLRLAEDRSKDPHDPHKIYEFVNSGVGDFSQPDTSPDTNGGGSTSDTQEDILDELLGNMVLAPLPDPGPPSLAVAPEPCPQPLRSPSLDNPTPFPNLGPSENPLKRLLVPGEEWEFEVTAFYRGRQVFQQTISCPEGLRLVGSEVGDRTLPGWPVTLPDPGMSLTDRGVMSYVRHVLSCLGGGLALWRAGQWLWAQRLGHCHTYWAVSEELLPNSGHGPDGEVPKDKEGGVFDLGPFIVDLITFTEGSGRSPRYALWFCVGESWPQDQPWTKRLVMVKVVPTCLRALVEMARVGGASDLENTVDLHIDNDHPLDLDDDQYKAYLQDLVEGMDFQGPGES
| Sequence | fitted relative affinity |
| --- | --- |
| GACGAACTGGACACTGGGGACGTGCTA | -0.274 z-score |
| TTCCCAATGGTCTTTCCACTTGTGCTA | 0.568 z-score |
| GACGCTTTCGGACTGGGGACGTGCTAG | 1.84 z-score |
| TTAGGTTTCGACTTTCGGTTGGTGCTA | 3.67 z-score |
| GACGGTTTCTGGTATCGGGACGTGCTA | 2.77 z-score |
| TTAGGACTGGTGTATCGGTTAGTGCTA | 0.432 z-score |
| TTACATTTCGGGTTTCGATTAGTGCTA | 2.97 z-score |
| GACGGTATCGGACTGGGGATGTGCTAG | 1.43 z-score |
| TCACTTCTGGTGCTCATCTGGTGCTAG | 0.972 z-score |
| TTAGGTCTGGGGACTGGGTTAGTGCTA | -1.06 z-score |

A few entries again (sample 3):
| Modification | mean fluorescence intensity [a.u.] |
| --- | --- |
| 2'F-ANA at 1 2 3 5 6 7 8 11 15 | 55.2 |
| 2'F-ANA at 3 4 5 12 14 | 53.9 |
| 2'F-ANA at 2 3 6 11 12 13 15 | 639 |
| 2'F-ANA at 1 3 6 8 10 11 13 | 76.9 |
| 2'F-ANA at 3 4 11 12 14 | 404 |
| 2'F-ANA at 3 4 6 7 10 11 14 15 | 196 |
| 2'F-ANA at 1 2 3 4 9 10 13 15 | 56.3 |
| 2'F-ANA at 2 4 5 6 7 8 9 14 | 48.7 |
